# Measurements pooled from the literature.
# Each numbered part is a random draw from the data of one study; scales do not carry over between parts.
# UniProt Q9C0B0, sequence (30-357, looked up): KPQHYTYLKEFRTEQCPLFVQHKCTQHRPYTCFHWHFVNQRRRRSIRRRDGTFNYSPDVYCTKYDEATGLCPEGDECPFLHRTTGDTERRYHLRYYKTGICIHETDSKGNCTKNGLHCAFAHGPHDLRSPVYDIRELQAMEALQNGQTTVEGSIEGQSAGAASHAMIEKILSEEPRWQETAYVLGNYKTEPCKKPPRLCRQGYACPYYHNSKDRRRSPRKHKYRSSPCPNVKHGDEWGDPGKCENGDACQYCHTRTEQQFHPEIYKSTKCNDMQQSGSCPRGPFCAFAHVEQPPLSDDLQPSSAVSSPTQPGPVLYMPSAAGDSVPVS

# Study 1
# Target: PABPC1L2, full length, GST fusion (mouse, UniProt A0ABA7IW68)
# Technique: RNAcompete
# Molecule type: RNA
# Matrix: in vitro
# Concentration: 20 nM
# Notes: 7-mer, probes averaged, single round
# Reference: mean of 7-mers
# Direction: higher = stronger binding
# Residues (chain): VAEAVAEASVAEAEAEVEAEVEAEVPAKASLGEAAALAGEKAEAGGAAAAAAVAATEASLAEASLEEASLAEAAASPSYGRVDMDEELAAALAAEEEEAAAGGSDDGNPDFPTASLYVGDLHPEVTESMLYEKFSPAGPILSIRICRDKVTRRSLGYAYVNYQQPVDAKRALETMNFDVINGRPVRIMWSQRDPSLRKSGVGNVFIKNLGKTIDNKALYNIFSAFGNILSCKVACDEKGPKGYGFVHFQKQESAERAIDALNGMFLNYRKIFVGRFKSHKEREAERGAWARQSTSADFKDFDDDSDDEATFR
Oligonucleotide,7-mer Z-score
CUUCGUU,-0.518
ACCCAUA,-0.124
ACCUCGC,-0.376
GAGCACA,0.128
AAGGUAU,0.204
CAGUUGC,-0.195
UCCCUGU,-0.347
UCCGAAC,-0.249
ACUAAAG,0.602
ACUGUAU,-0.242
CCUAUCA,-0.231
AGUAAGU,-0.157
ACCAUUG,-0.242
AAGAUUC,0.175
CUAUGCU,-0.213
GGGCAAG,0.323

# Study 2
# Target: Sal-like protein 4, full length isoform B (SALL4, Homo sapiens, UniProt Q9UJQ4-2, residues 1-616)
# Technique: universal PBM
# Molecule type: double-stranded DNA, one strand shown
# Matrix: in vitro
# Concentration: not given
# Notes: 8-mer, flanks averaged, mean of replicates
# Direction: higher = stronger binding
Oligonucleotide,E-score
ACGTTTAG,0.0815
ACTCACAG,0.00829
GAGTATGC,0.0495
CAAGGACG,-0.204
ATAGAAAT,0.327
GGGAACTA,-0.0096
ACACAACA,0.187
AACGAGTA,0.0983
CTCTCAAC,-0.11
CCACACCG,-0.204
CTCCGATA,0.0685
AGGTTTAA,0.139
GTGTAGTA,0.123
CTCTGCAA,0.0461
GGTCCAAC,-0.229
GGATTAAA,0.0979
AGATAGCG,-0.0806
GGTTTTAA,0.1
AAGAGAGG,0.0226
AAGTATTA,0.312

# Study 3
# Target: Fragile X messenger ribonucleoprotein 1, C-terminal low-complexity region (Fmr1, Mus musculus, UniProt P35922)
# Technique: RNA Bind-n-Seq
# Molecule type: RNA
# Matrix: in vitro
# Concentration: 200 nM
# Notes: whole 134-nt RNA, ends assumed
# With: 150 mM LiCl
# Reference: input library
# Direction: higher = stronger binding
# Library: 7-deaza-guanosine replaces G
Oligonucleotide,log2 enrichment
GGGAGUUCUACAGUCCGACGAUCUCCUGUGCUACACAUCGUAUGUACCGAAUCGGUUUUUGGGGUUUUUGGGGUUUUUGGGGAAAGUAUUAUGUUACGCCGUUCGGAUCUGCAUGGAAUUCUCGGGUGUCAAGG,-0.845
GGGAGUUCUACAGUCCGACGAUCUCAAGUCCUGUGCUACACAUCGUAUGUACCGAAUCGGGCCCGGCCCGGGCCCGGAAAGUAUUAUGUUACGCCGUUCGGAUCUGCACUUCCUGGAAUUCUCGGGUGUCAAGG,-1.39
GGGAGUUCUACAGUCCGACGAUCAAGUCCUGUGCUACACAUCGUAUGUACCGAAUCGGGGAAAAGGAAAAGGGGAAAAGGAAAGUAUUAUGUUACGCCGUUCGGAUCUGCACUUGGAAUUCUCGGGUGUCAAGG,0.0743
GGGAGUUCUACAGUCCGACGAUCGCAGGAAGUAAAAACAAAUGGAAAUGCUUCGGAUAGUGGCAGGGGUGGGGGUUGCUAAGGAAAGGGUGGGAUGGGAGUGGGUAAAGAUUUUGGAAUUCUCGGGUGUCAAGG,1.66
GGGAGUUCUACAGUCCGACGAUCAGUCCUGUGCUACACAUCGUAUGUACCGAAUCAAAUUUUUAAACCCCCAAAUUUAAAAAAGUAUUAUGUUACGCCGUUCGGAUCUGCACUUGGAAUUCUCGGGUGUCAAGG,-1.37
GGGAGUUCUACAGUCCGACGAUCCAAGUCCUGUGCUACACAUCGUAUGUACCGAAUCGGGAAAAGGGAAAAGGAAAAGGAAAGUAUUAUGUUACGCCGUUCGGAUCUGCACUUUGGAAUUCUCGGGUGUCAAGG,-1.43
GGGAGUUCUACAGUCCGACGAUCAAGUCCUGUGCUACACAUCGUAUGUACCGAAUCGGGUUUUUGGGAAAGGGUUUGGGAAAGUAUUAUGUUACGCCGUUCGGAUCUGCACUUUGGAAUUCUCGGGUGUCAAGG,-3
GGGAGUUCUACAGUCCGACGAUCUCCUGUGCUACACAUCGUAUGUACCGAAUCGGGGUUUUUUGGUUUUUUGGGUUUUUUGGGAAAGUAUUAUGUUACGCCGUUCGGAUCUGCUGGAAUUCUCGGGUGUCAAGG,-1.02
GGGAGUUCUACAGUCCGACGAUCGUCCUGUGCUACACAUCGUAUGUACCGAAUCGGGAAAAAAAGGGAAAAAAAGGGAGGGAAAGUAUUAUGUUACGCCGUUCGGAUCUGCACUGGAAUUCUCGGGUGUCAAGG,0.271
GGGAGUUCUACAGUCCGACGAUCAGUCCUGUGCUACACAUCGUAUGUACCGAAUCGGGAAAAAGGGAGGGAAAAAAAGGGAAAGUAUUAUGUUACGCCGUUCGGAUCUGCACUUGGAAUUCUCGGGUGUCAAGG,-0.582
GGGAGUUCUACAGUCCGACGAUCACCAUGCAGGUGGGCAUCUUUGGGAAGUGGGGCAAGGGGGGGAUAGGGAGGGGGGUAACGCUUUGGGAACAGGUGGUCCCAGGUCGUUUCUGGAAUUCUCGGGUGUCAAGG,1.02

# Study 4
# Target: RNA binding protein fox-1 homolog 2, RRM domain, GST-SBP tag (RBFOX2, Homo sapiens, UniProt O43251-10, residues 100-194)
# Technique: RNA Bind-n-Seq
# Molecule type: RNA
# Matrix: in vitro
# Concentration: 365 nM
# Notes: natural RNA segment, single round, ends assumed
# Reference: no-protein control
# Direction: higher = stronger binding
# Target sequence (chain): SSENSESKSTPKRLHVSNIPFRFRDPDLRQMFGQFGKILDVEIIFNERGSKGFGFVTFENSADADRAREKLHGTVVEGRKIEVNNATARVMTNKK
Oligonucleotide,RBNS enrichment (R)
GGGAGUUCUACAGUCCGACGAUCGUUGGAACGCCACGGUUGCCAGACCAUUCCUUCCAUCUAACUGCGUAUUACACAAGGGCAUCGAGUUCCAGGUGCCCCCCUUUUAGGACAGAGUUGUUUCCCAAUUCUGGUGGAAUUCUCGGGUGCCAA,0.252
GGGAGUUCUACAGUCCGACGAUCUGGUUCCUCAGGGAAGAAUCUCACUUGACUAGAGAGGAGGUGGGAACAGAAGAGAGAAGGAGGCAGGGAGAUGUAUUUCUUAGGGCUCACCCCUUCACAGACUGACAGAAUGGAAUUCUCGGGUGCCAA,0.666
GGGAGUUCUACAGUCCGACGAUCAAAAAGAAACAAAAAUAUUUUUCCCCCUAAAAUAGGAGAGAGCCAAAACUGACCAAGGCUAUUCAGCAGUGAACCAGUGACCAAAGAAUUAAUUACCCUCCGUUUCCCACUGGAAUUCUCGGGUGCCAA,0.374
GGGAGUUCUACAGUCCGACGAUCCUUCUGUGGAGUUUGGUUCAAAGACUGGUAUGGCAGAUAGAGGCUUGGAUGCAUUUUUCAUCAGGCUCAGUGGCUAGCAUCAGUGAACAUUCAGUUUCAGAGGGACAGUUUGGAAUUCUCGGGUGCCAA,0.986
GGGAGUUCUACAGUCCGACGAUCCACAGCUAGCUCUAUAUUCUCUCUGUGGAGUCCCAACACAUGGAGCUCAACUACACAAUAUAAGGCAGACCAACCAAUACAUGCCUGUCAUUCACGUGUCCUUUCAUGUGUGGAAUUCUCGGGUGCCAA,0.224
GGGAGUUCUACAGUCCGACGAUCACACUCAAAGGCUGUGUGACUUGUCCUGUCCUGUGGCACCGAAGCCCUAGGUAGCUGGCUGUUUUGAUGAGGUCAUUUGAAUCAUGGGAGUGUCCUUACACUACACUAUCUGGAAUUCUCGGGUGCCAA,0.502
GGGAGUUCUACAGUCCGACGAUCCAUCCUAAUGGAGACACACAAAACUGUUGGUAAGAAGAUGCAACAGAUCCAAAGGGAAAUUCUAGAGAUCUCUUAGUAAUGUAGUAAGGCAGGCCUUCUUCUUCCGGAGUUGGAAUUCUCGGGUGCCAA,0.504
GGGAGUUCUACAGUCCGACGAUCGAUCUCAUUAGUUUAUAGGCGUUGAUAAUAUCCCUAUGCAUAGAUUCUUUGUGUAUUGAUUACUAUAUAUAGACAUCUAAGAGGUUAAUUAUUGAUCAAGAAGACAGGUUUGGAAUUCUCGGGUGCCAA,0.339
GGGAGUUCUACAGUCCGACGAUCAAAAUGCCCCAAACUCCAAGGCAGAUUGUCUGUAUAAUACGCUAUAGCUUUUCACCAUGUGGUGUUUACCAGCUGUUACUCUGUAUUUUAAAAAGCCAGAGAUUUCUUCUUGGAAUUCUCGGGUGCCAA,0.432
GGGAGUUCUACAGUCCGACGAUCGAGGCAGACAGACUGAGGCACCACAGAGGGUCAAACAAGCGUGCUUCCCUCACACACUGUGACUAUUGGGAGACUGCGCCAGUUAGCAGUAGUUCACUCAGCCUUGAUUGUGGAAUUCUCGGGUGCCAA,0.551
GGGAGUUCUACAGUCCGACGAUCCUGUUCCUCCAGAAUUUGAGUCCUGUUAAUGUAGUGGCAAAGAAGAAAGUUUCUUUUUCUUUUGUGUUAGUCUUGCAAGUUUGUCUACCAGUAAAAGAGCAAAGUUUCCUUGGAAUUCUCGGGUGCCAA,17.1
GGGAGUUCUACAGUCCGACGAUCUCAGAAUAUCCAAGUCCUGUAUGUGUGUGUCAUCCUCUUGCGAUCAUUUUUACUAAUCCUAAUACUCUGCUCUAGCUUGCUUCAGAACUCCCGUGGCUUUGCUUGAUCUGUGGAAUUCUCGGGUGCCAA,2.59

# Other studies, line by line
Oligonucleotide,target,assay,test system,conditions,scale,quantity,result
GGGAGUUCUACAGUCCGACGAUCCCGAAAGGCCAAAUUCCCUCCUCCCUUCUACUGCUUCUACCAACUGGAAGCACAGAAAACCCGAAUUUCAUUUAUUUUGUUUUUAAAAUAUAUAUGUUGAUUUCUUGUAACAUCCAACCGCAACAGAGGAUUGAGCAUCA,"RING finger protein unkempt homolog, zinc fingers 1-6, SBP tag (UNK, Homo sapiens, UniProt Q9C0B0, residues 30-357)",RNA Bind-n-Seq,"RNA, in vitro","100 nM, RNA with constant flanks, ends assumed","reference: input RNA pool, higher = stronger binding",bound/input enrichment,0.381 ratio

# Some of these lines once more (study 2):
Oligonucleotide,E-score
GGATTAAA,0.0979
GAGTATGC,0.0495
GGTCCAAC,-0.229
